Measurements collected from several papers.
Lines come from different studies, so protocols differ. ± gives the spread as reported.
Cell line: HCT-15

COc1c(C)c2c(c(O)c1C/C=C(\C)CCC(=O)O)C(=O)OC2 — IC50 (cell proliferation; colon cancer): 200 nM
Cn1cncc1C1=CN(c2ncnc3[nH]cnc23)CCS1 — CC50 (colon cancer): > 200000 nM
CN1CCN(C2(CNC3CCN(c4cccc(-c5cc6cc(F)ccc6[nH]5)c4)CC3)CCC2)CC1 — GI50: 455 nM
Nc1ncc(-c2nc(N3CCOCC3)nc(N3CCOCC3)n2)c(C(F)F)n1 — GI50 (72 h): 161 nM
COc1cc(CCC[P+](c2ccccc2)(c2ccccc2)c2ccccc2)c(OC)c2c1OCO2.[I-] — LC50 (SRB): > -4 log M
N.N.[Cl][Pt][Cl] — IC50 (cell growth, MTT; 48 h, LED light photolysis 1 h): 16800 ± 4800 nM
CCN(CC)c1ccc(C=NNC(=O)CSc2nc3ccccc3c(=O)n2Cc2ccc(S(N)(=O)=O)cc2)c(O)c1 — CC50 (NCI five-dose screen): > 100000 nM
COc1c(CCC[P+](c2ccccc2)(c2ccccc2)c2ccccc2)cc2c(c1OC)OCO2.[I-] — LC50 (SRB): > -4 log M
